Experimental data of several laboratories.
Compare with care: the assays were run in different laboratories.

CCCCCCCCCCCC(=O)ON=C1C=CC(=C(C#N)c2ccccc2)C=C1
MIC (Kluyveromyces marxianus; broth dilution; ATCC 204093; 48 h, 37 °C): 128 µg/mL

COc1ccc(CNc2ccc(C(=O)O)cc2)cc1OC
MIC (Salmonella enterica): 64 µg/mL

OC(Cn1cncn1)(Cn1cncn1)c1ccc(F)cc1F
MIC (Candida albicans; growth, broth microdilution; 24 h): 2 µg/mL

C=CC(=O)ON=C1C=CC(=C(C#N)c2ccccc2)C=C1
MIC (Kluyveromyces marxianus; broth dilution; ATCC 204093; 48 h, 37 °C): 16 µg/mL

N=C(N)c1ccc(OCc2cc(COc3ccc(C(=N)N)cc3)cc(-c3ccccc3)c2)cc1
MIC (Escherichia coli; mcr-1 polymyxin-resistant; 20 h, compound alone): 100 µg/mL

O=C(O)c1ccc(NCc2cccc([N+](=O)[O-])c2)cc1
MIC (Salmonella enterica): 64 µg/mL

CCOC(=O)CON
MIC (Candida tropicalis; CT2): 32 µg/mL

OC(Cn1cncn1)(Cn1cncn1)c1ccc(F)cc1F
MIC (Zygosaccharomyces bailii; broth microdilution; MYA-4549, Sabouraud dextrose broth; 72 h): > 128 µM

CC(C)NCC(O)COc1ccc(CC(N)=O)cc1 (stereo not shown)
inhibition (Nedd8-cullin1 interaction; neddylation, AlphaScreen; 100 µM): 26.5%

COc1ccccc1CNc1ccc(C(=O)O)cc1
MIC (Salmonella enterica): 64 µg/mL

CC1(C)SC2C(NC(=O)C(NC(=O)C3=C(O)C(Cc4ccccc4)NC3=O)c3ccccc3)C(=O)N2C1C(=O)O (stereo not shown)
MIC (Escherichia coli; broth microdilution; ATCC 25922 wild type; no clavulanic acid): 6.25 µg/mL

CN[C@H](CC(C)C)C(=O)N[C@H]1C(=O)N[C@@H](CC(N)=O)C(=O)N[C@H]2C(=O)N[C@H]3C(=O)N[C@H](C(=O)N[C@H](C(=O)O)c4cc(O)cc(O)c4-c4cc3ccc4O)[C@H](O)c3ccc(c(Cl)c3)Oc3cc2cc(c3O[C@@H]2O[C@H](CO)[C@@H](O)[C@H](O)[C@H]2O[C@H]2C[C@](C)(N)[C@H](O)[C@H](C)O2)Oc2ccc(cc2Cl)[C@H]1O
MIC (Bifidobacterium adolescentis; broth microdilution; DSM 108263): 0.17 µM

OC(Cn1cncn1)(Cn1cncn1)c1ccc(F)cc1F
MIC (Candida tropicalis; broth microdilution; CT-Q-2; 24 h): > 400 µM

CNC(C)C1CCC(N)C(OC2C(N)CC(N)C(OC3OCC(C)(O)C(NC)C3O)C2O)O1 (stereo not shown)
MIC (Pseudomonas aeruginosa; clinical isolate RKI-No_578/15): 4 µg/mL

C=C1C(=O)O[C@@H](CCCCCCCCCCCCC)[C@@H]1C(=O)O
MIC (Candida tropicalis; CT2): 32 µg/mL

N=C(N)c1ccc(OCCCCCOc2ccc(C(=N)N)cc2)cc1
MIC (Escherichia coli; mcr-3 polymyxin-resistant; compound alone): > 200 µg/mL

CCOC(=O)C1=C(C)NC(C)=C(C(=O)OCC)C1c1ccccc1/C=C/C(=O)OC(C)(C)C
inhibition (Nedd8-cullin1 interaction; neddylation, AlphaScreen; 100 µM): 14.8%

COc1cc(Cc2cnc(N)nc2N)cc(OC)c1OC
MIC (Salmonella enterica; 20 h, pH 5.5): > 128 µg/mL

N=C(N)c1cccc(OCc2ccc(COc3cccc(C(=N)N)c3)cc2)c1
MIC (Escherichia coli; BW25113; in combination, lowest-FICI combination, added: vancomycin): 200 µg/mL

CC(=O)NC[C@H]1CN(c2ccc(N3CCOCC3)c(F)c2)C(=O)O1
MIC (Bifidobacterium adolescentis; HM-633): < 2.96 µM

N#CC(=C1C=CC(=NOC(=O)c2ccccc2)C=C1)c1ccccc1
MIC (Kluyveromyces marxianus; broth dilution; ATCC 204093; 48 h, 37 °C): 128 µg/mL

COc1cc(CNc2ccc(C(=O)O)cc2)ccc1O
MIC (Salmonella enterica): 64 µg/mL

Excerpt of the above:
N=C(N)c1cccc(OCc2ccc(COc3cccc(C(=N)N)c3)cc2)c1
MIC (Escherichia coli; BW25113; in combination, lowest-FICI combination, added: vancomycin): 200 µg/mL
